Assay results pooled from the literature.
A part holds a random share of what one study measured. Positions count from the first letter of the parent shown.

Series 1 — method: aptamer microarray, sandwich; molecule type: DNA with 2'F-ANA; medium: in vitro; tested at: 200 nM; added: Cy3 exosite-II aptamer, 400 nM; reading: higher = stronger binding; sequence: GGTTGGTGTGGTTGG
Target: Prothrombin, mature alpha-thrombin (F2, Homo sapiens, UniProt P00734)
Notes: whole 15-mer aptamer, many near background
Modification | mean fluorescence intensity [a.u.]
2'F-ANA at 9 13 14 15 | 171
2'F-ANA at 5 9 11 12 | 137
2'F-ANA at 1 5 6 7 9 12 13 14 | 57.8
2'F-ANA at 1 3 4 6 7 10 13 | 68.1
2'F-ANA at 1 3 5 6 7 8 10 11 | 50.2
2'F-ANA at 2 3 6 7 9 11 13 14 | 281
2'F-ANA at 1 3 4 6 7 8 10 11 14 15 | 54.9
2'F-ANA at 1 2 3 4 6 7 10 12 13 14 | 58.8
2'F-ANA at 1 2 3 5 6 10 11 12 13 | 54.2
2'F-ANA at 3 5 7 8 9 11 12 14 | 91.4
2'F-ANA at 2 4 5 15 | 65.2
2'F-ANA at 3 5 7 8 10 11 12 13 15 | 66.3
2'F-ANA at 6 7 8 10 12 13 14 15 | 107
2'F-ANA at 1 3 4 6 7 8 10 11 12 13 14 | 52.9
2'F-ANA at 2 3 9 10 13 15 | 335
2'F-ANA at 1 4 7 8 10 14 15 | 47.1
2'F-ANA at 3 4 10 11 12 13 15 | 321
2'F-ANA at 1 2 4 7 8 9 11 13 14 15 | 48.8
2'F-ANA at 1 2 3 6 8 9 11 12 13 15 | 293
2'F-ANA at 1 3 4 5 7 8 9 10 12 | 52.3
2'F-ANA at 4 7 9 13 14 | 179

Series 2 — target: CCND3, cyclin fold, Cln2 fusion (human); method: yeast growth competition, sequencing; medium: yeast; notes: weak parent motif; baseline: not given; reading: higher = stronger binding
Starting sequence: NPAT docking peptide (human); PCHRRVLCFDSTT
Change | normalised enrichment score
PCHRAVACFDSTT [R5A L7A] | 0.086
PAHRRVLCFDSTT [C2A] | 0.17
PCHRRVACFDSTT [L7A] | 0.0982
PCHRRALCFDSTT [V6A] | 0.114
PCHRRVLCADSTT [F9A] | 0.0552
ACHRRVLCFDSTT [P1A] | 0.111
PCHRKVLCLDSTT [R5K F9L] | 0.211
PCHRRVLCLDSTT [F9L] | -0.157
PCHRRVLAFDSTT [C8A] | 0.0903
PCHRRVLCFDSTA [T13A] | 0.0238

Series 3 — method: RNA Bind-n-Seq; molecule type: RNA; medium: in vitro; tested at: 200 nM; notes: whole 134-nt RNA, ends assumed; added: 150 mM LiCl; baseline: input library; reading: higher = stronger binding; all molecules: 7-deaza-guanosine replaces G
Target: Fragile X messenger ribonucleoprotein 1, C-terminal low-complexity region (Fmr1, Mus musculus, UniProt P35922)
Constant ends, left off below: GGGAGUUCUACAGUCCGACGAUC … UGGAAUUCUCGGGUGUCAAGG
Sequence | log2 enrichment
UAACUUUAGAGGAGGAUCUGAUGGAUAUGGCAGUGGACGUGGAUUUGGGGUUGGCUAUAAUGGGUAUGGAGGAGGACCUGGAGGUGGCAA | -0.205
CAAGUCCUGUGCUACACAUCGUAUGUACCGAAUCGGGAGGGAGGGUUUUUUUGGGAAAGUAUUAUGUUACGCCGUUCGGAUCUGCACUUC | -0.567
AGUCCUGUGCUACACAUCGUAUGUACCGAAUCGGUUUUUGGGGUUUUUGGUUUUUGGAAAGUAUUAUGUUACGCCGUUCGGAUCUGCACU | -1.79
CUCAAGUCCUGUGCUACACAUCGUAUGUACCGAAUCGGUUUGGUUUGGUUUGGAAAGUAUUAUGUUACGCCGUUCGGAUCUGCACUUCCA | -0.405
UCCUGUGCUACACAUCGUAUGUACCGAAUCGGGGAAAAAAAGGGGUGGGGUUUUUGGGGAAAGUAUUAUGUUACGCCGUUCGGAUCUGCA | -1.96
GUCCUGUGCUACACAUCGUAUGUACCGAAUCAAACCCAAACCCCCCCAAAUUUUUAAAAAAGUAUUAUGUUACGCCGUUCGGAUCUGCAC | 1.67
ACCAUGCAGGUGGGCAUCUUUGGGAAGUGGGGCAAGGGGGGAAAAGGGAGGGGGGUAACACUUUGGGAACAGGUGGUCCCAGGUCGUUUC | 1.19
UGGGAGGUGGAUUUUGUUUAUUUUUUCAGCUCAUUUCCAGGGGUGGGAAUUUUUUUUUAAUAUGUGUCAUGAAUAAAGUUGUUUUUGAAA | -0.163

Series 4 — method: DHFR PCA, deep sequencing; medium: yeast; added: (+)-ABA 4.8 µM; baseline: wild-type fitted maximum; reading: higher = stronger binding
Target: ABI1, truncated, D143A, DHFR fusion (Arabidopsis thaliana)
Notes: methotrexate growth selection, single substitutions
Starting sequence: PYL1, truncated, DHFR fusion (Arabidopsis thaliana); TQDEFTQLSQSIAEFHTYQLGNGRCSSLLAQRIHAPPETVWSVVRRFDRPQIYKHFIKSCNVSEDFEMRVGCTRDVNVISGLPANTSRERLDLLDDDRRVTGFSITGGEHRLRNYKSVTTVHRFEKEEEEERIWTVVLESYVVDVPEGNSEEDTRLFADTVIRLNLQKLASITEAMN; partner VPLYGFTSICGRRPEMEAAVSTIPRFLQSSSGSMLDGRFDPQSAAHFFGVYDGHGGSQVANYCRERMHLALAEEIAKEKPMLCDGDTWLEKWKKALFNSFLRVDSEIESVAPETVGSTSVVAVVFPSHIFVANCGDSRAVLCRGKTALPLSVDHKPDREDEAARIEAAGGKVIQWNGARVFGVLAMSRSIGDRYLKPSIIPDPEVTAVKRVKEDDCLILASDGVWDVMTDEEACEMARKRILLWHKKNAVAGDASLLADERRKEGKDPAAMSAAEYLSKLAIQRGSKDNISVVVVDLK
Change | relative binding score [%]
V161A | 10.1
D159E | 45
A13E | 75.2
I162Y | -11.1
D96C | -0.109
R163S | 53.7
V142K | 23.7
T86P | -3.09
L112D | -10.1
G108S | -2.25
G102F | -10.8
S42P | 17.7
V137W | 4.01
P146Y | 8.9
S63H | 63.9
G23W | 12.6
S80D | -15.4
T101C | 59.7

Series 5 — method: RNA Bind-n-Seq; molecule type: RNA; medium: in vitro; tested at: 20 nM; notes: 6-mer, flanks averaged, single round; added: 150 mM LiCl; baseline: input library; reading: higher = stronger binding
Target: TAR DNA-binding protein 43, full length, His tag (TARDBP, Homo sapiens, UniProt Q13148, residues 1-414)
Sequence | 6-mer enrichment (R)
CAAUUU | 1.03
UGUUUU | 1.58
GUGUCA | 1.04
CCAGUG | 1.02
CUGCCU | 0.959
GCACUU | 0.888
UUUCAA | 0.932
CUGCGG | 0.955
ACCAGU | 0.887
AACAAU | 1.06
UUGCUC | 0.936
GCGAUC | 0.901
CCACUG | 0.932

A few entries again (series 1):
Modification | mean fluorescence intensity [a.u.]
2'F-ANA at 5 9 11 12 | 137
2'F-ANA at 3 4 10 11 12 13 15 | 321
2'F-ANA at 1 2 3 5 6 10 11 12 13 | 54.2
2'F-ANA at 2 3 6 7 9 11 13 14 | 281
2'F-ANA at 1 3 4 6 7 8 10 11 12 13 14 | 52.9
2'F-ANA at 6 7 8 10 12 13 14 15 | 107
2'F-ANA at 1 2 3 6 8 9 11 12 13 15 | 293
